Experimental data of several laboratories.
Numbered parts are unrelated; each lists some results of a single study. Positions count from the first letter of the parent shown.

Set 1
Target: Myc proto-oncogene protein, bHLH-zipper, MAX partner unstated (MYC, Homo sapiens, UniProt P01106, residues 368-449)
Chain of UniProt P01106 (368-449, looked up): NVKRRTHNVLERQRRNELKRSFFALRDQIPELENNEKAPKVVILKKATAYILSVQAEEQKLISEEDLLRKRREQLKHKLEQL
Method: protein-binding microarray
Molecule type: double-stranded DNA, one strand shown
Matrix: in vitro
Concentration: not given
Notes: k-mer, scored over probes, only values ≥0.25
Direction: higher = stronger binding
Endpoint: E-score
Strand = CAACGTGA; value = 0.348
Strand = ATGCCCAC; value = 0.33
Strand = AAGGCACA; value = 0.252
Strand = GGCGGGGA; value = 0.348
Strand = ACCATGCT; value = 0.43
Strand = CGCGAGCA; value = 0.271
Strand = ACGTGGCC; value = 0.413
Strand = ATGCGTCA; value = 0.305

Set 2
Target: Histone acetyltransferase KAT6A, winged helix 2, GST fusion (KAT6A, Homo sapiens, UniProt Q92794, residues 85-181)
Method: protein binding microarray
Molecule type: double-stranded DNA, one strand shown
Matrix: in vitro
Concentration: not given
Notes: 8-mer, flanks averaged, mean of 2 arrays, mostly near background
Reference: not given
Direction: higher = stronger binding
Endpoint: E-score
Target sequence (chain): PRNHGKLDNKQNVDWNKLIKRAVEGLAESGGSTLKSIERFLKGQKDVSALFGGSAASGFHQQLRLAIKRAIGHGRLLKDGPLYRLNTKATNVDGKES
Strand = AGGCACCT; value = -0.0704
Strand = ACGACTAT; value = -0.104
Strand = TACTCTCA; value = -0.00906
Strand = GTCTCCCA; value = -0.151
Strand = AGGAACCT; value = 0.0748
Strand = CTACTGAG; value = -0.087
Strand = CTGTACGA; value = -0.072
Strand = ATTGCGTC; value = -0.00728
Strand = CATCCCAC; value = -0.0457
Strand = AAGCCTGA; value = 0.0158
Strand = AGCGCACG; value = -0.0109
Strand = ACCGCGTG; value = 0.174
Strand = CGGGGAAC; value = 0.224
Strand = GATGGGTA; value = -0.0731
Strand = TACGCCGA; value = -0.108
Strand = CCAAGTTA; value = -0.135
Strand = AAGAAAGG; value = 0.0701
Strand = GTCCGAAC; value = -0.0259
Strand = ACTATCTA; value = -0.0261
Strand = CCGTAAAC; value = -0.0616

Set 3
Target: CCND1, cyclin fold, Cln2 fusion (human)
Method: yeast growth competition, sequencing
Matrix: yeast
Notes: strong parent motif
Reference: not given
Direction: higher = stronger binding
Endpoint: normalised enrichment score
Starting sequence: RBL2 docking peptide (human); STTRRRLFVENDS; partner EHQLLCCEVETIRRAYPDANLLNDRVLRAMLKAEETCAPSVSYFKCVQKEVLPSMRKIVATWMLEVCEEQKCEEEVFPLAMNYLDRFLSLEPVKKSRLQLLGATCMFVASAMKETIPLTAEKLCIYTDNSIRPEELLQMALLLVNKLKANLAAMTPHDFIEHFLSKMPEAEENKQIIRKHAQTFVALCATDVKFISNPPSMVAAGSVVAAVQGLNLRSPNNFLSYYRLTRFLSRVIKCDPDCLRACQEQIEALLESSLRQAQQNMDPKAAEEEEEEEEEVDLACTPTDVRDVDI
Variant = STTRRRLFVENHS [D12H]; value = 1.11
Variant = STKRRRLFVENDS [T3K]; value = -0.28
Variant = STTRRRLFVENDI [S13I]; value = 1.61
Variant = STYRRRLFVENDS [T3Y]; value = 0.602
Variant = STTRRALFVENDS [R6A]; value = 1.17
Variant = STTRRRLFVENFS [D12F]; value = -0.0568
Variant = STTRRRRFVENDS [L7R]; value = 0.116
Variant = SSTRRRLFVENDS [T2S]; value = 1.47
Variant = STTRRRLFVESDS [N11S]; value = 0.993
Variant = STTRRRLFHENDS [V9H]; value = 1.55
Variant = STTRRRLFVENDW [S13W]; value = 0.786
Variant = STTRRRLFVEHDS [N11H]; value = 0.531

Mixed results
Substance = PhoQ, residues 284 288 289 292 302 303 ALVSVA; target = PhoP, residues 12 14 15 18 19 LHATL (Escherichia coli, UniProt P23836); assay = Sort-seq, measured: YFP reporter; system = E. coli; conditions = PhoQ-PhoP variant library, added: 10 µM Mg2+; how to read = reference: high Mg2+ state, higher = stronger signaling; endpoint = fold induction; value = 4.59

A few entries again (set 3):
Variant = STYRRRLFVENDS [T3Y]; value = 0.602
Variant = STTRRALFVENDS [R6A]; value = 1.17
Variant = STTRRRLFVENFS [D12F]; value = -0.0568
Variant = STTRRRRFVENDS [L7R]; value = 0.116
Variant = SSTRRRLFVENDS [T2S]; value = 1.47
Variant = STTRRRLFVESDS [N11S]; value = 0.993
